Assay results from different studies.
Numbered parts are unrelated; each lists some results of a single study.

Series 1 — target: UBE2G1 UBC core domain (UniProt P62253); method: yeast two-hybrid; medium: yeast; notes: mostly zero background; reference: not given; direction: higher = stronger interaction; measurement: lacZ reporter activity
B1: TRIM63 RING domain (UniProt Q969Q1); chain PMENLEKQLICPICLEMFTKPVVILPCQHNLCRKCANDIFQAANPYWTSRGSSVSMSGGRFRCPTCRHEVIMDRHGV
B2: RNF25 RING domain (UniProt Q96BH1); chain LTDNNIPHGQCVICLYGFQEKEAFTKTPCYHYFHCHCLARYIQHMEQELKAQGQEQEQERQHATTKQKAVGVQCPVCREPLVYDLASL
B3: RNF170 RING domain (UniProt Q96K19); chain TRQQFYTDMYCPICLHQASFPVETNCGHLFCGACIIAYWRYGSWLGAISCPICRQTVTLLLTVF
B4: PHF21A RING domain (UniProt Q96BD5); chain SPTSTDGDIHEDFCSVCRKSGQLLMCDTCSRVYHLDCLDPPLKTIPKGMWICPRCQDQMLKKEEAIPW
B5: MID1 RING domain (UniProt O15344); chain METLESELTCPICLELFEDPLLLPCAHSLCFNCAHRILVSHCATNESVESITAFQCPTCRHVITLSQRGL
B6: RC3H2 RING domain (UniProt Q9HBD1); chain QAAQWTEFLSCPICYNEFDENVHKPISLGCSHTVCKTCLNKLHRKACPFDQTAINTDIDVL
B7: UHRF2 RING domain (UniProt Q96PU4); chain CGGDPEKKCHSCSCRVCGGKHEPNMQLLCDECNVAYHIYCLNPPLDKVPEEEYWYCPSCKTDSSEVVKAGER
B8: IRF2BPL RING domain (UniProt Q9H1B7); chain SPMANSGPLCCTICHERLEDTHFVQCPSVPSHKFCFPCSRESIKAQGATGEVYCPSGEKCPLVGSNVP
B9: CUL9 RING domain (UniProt Q8IWT3); chain AQAVPVRPDHCPVCVSPLGCDDDLPSLCCMHYCCKSCWNEYLTTRIEQNLVLNCTCPIADCPAQPTGAFIR
Residues (chain): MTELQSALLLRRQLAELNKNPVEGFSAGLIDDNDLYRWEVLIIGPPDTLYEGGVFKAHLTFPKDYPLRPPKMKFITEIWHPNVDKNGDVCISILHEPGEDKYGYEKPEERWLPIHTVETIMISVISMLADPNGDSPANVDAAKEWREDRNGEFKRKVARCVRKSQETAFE
KTLSRFGIQPCSICLGDAKDPVCLPCDHVHCLRCLRAWFASEQMICPYCLTALPDEFSPA (RNF213 RING domain (UniProt Q63HN8)): 0
B1 (TRIM63 RING domain): 0
QLRRLQEERTCKVCMDKEVSVVFIPCGHLVVCQECAPSLRKCPICRGIIKGTVRTF (BIRC2 RING domain (UniProt Q13490)): 0
DDENSDNSNECVVCLSDLRDTLILPCRHLCLCTSCADTLRYQANNCPICRLPFRALLQIR (MGRN1 RING domain (UniProt O60291)): 0
B2 (RNF25 RING domain): 0
B3 (RNF170 RING domain): 0
B4 (PHF21A RING domain): 0
B5 (MID1 RING domain): 0
B6 (RC3H2 RING domain): 0
B7 (UHRF2 RING domain): 0
RLTMMWEEVTCPICLDPFVEPVSIECGHSFCQECISQVGKGGGSVCPVCRQRFLLKNLRP (TRIM21 RING domain (UniProt P19474)): 0
YWAMDSTFELCKICAESNKDVKIEPCGHLLCSCCLAAWQHSDSQTCPFCRCEIKGWEAVS (CBLC RING domain (UniProt Q9ULV8)): 0
B8 (IRF2BPL RING domain): 0
B9 (CUL9 RING domain): 0
QLRRLQEERTCKVCMDKEVSIVFIPCGHLVVCKDCAPSLRKCPICRSTIKGTVRTF (BIRC3 RING domain (UniProt Q13489)): 0

Series 2 — method: RNA Bind-n-Seq; molecule type: RNA; medium: in vitro; concentration: 200 nM; notes: whole 134-nt RNA, ends assumed; together with: 150 mM KCl; reference: input library; direction: higher = stronger binding; measurement: log2 enrichment
Target: Fragile X messenger ribonucleoprotein 1, C-terminal low-complexity region (Fmr1, Mus musculus, UniProt P35922)
Constant ends, left off below: GGGAGUUCUACAGUCCGACGAUC … UGGAAUUCUCGGGUGUCAAGG
AGUCCUGUGCUACACAUCGUAUGUACCGAAUCGGGGUUUGGGGAAAAAGGGGAGGGGAAAGUAUUAUGUUACGCCGUUCGGAUCUGCACU: 0.69
CAAGUCCUGUGCUACACAUCGUAUGUACCGAAUCGGGGUUUGGGUUUGGUUUGGGGAAAGUAUUAUGUUACGCCGUUCGGAUCUGCACUU: 0.377
GUCCUGUGCUACACAUCGUAUGUACCGAAUCGGGCCCCCGGGGCCCCCGGGCCCCCGGAAAGUAUUAUGUUACGCCGUUCGGAUCUGCAC: -1.89
UGGCCCUGGUGGCAUGCGGGGAGGAAGAGGUGGCCUCAUGGAUCGUGGUGGUCCCGGUGGAAUGUUCAGAGGUGGCCGUGGUGGAGAGAG: -0.0916
CUGUGCUACACAUCGUAUGUACCGAAUCGGGGCCCCCCCGGGCCCCCCCGGGCCCCCCCGGGAAAGUAUUAUGUUACGCCGUUCGGAUCU: -1.25
GUCCUGUGCUACACAUCGUAUGUACCGAAUCGGUUUUUUUGGAAAAAAAGGAAAAAGGAAAGUAUUAUGUUACGCCGUUCGGAUCUGCAC: -0.999
UGGGAGGUGUAUUUUGUUUAUUUUUUUAGCUCAUUUCCAGGGGUGGGAAUUUUUUUUUAAUAUGUGUCAUGAAUAAAGUUGUUUUUGAAA: 0.377
UCCUGUGCUACACAUCGUAUGUACCGAAUCGGGUUUUUUUGGGUUUGGGAAAAAAAGGGAAAGUAUUAUGUUACGCCGUUCGGAUCUGCA: -0.325
ACCAUGCAGGUGGGCAUCUUUGGGACGUGGGGCAAGGGGGGGAUAGGGAGGGGGGUAACACUUUGGGAACAGGUGGUCCCAGGUCGUUUC: 0.983
UCAAGUCCUGUGCUACACAUCGUAUGUACCGAAUCGGUGGUUUUUGGUUUUUGGAAAGUAUUAUGUUACGCCGUUCGGAUCUGCACUUCC: -0.435

Series 3 — method: protein-binding microarray; molecule type: double-stranded DNA, one strand shown; medium: in vitro; concentration: not given; direction: higher = stronger binding; measurement: E-score
Target: Myc proto-oncogene protein, bHLH-zipper, MAX partner unstated (MYC, Homo sapiens, UniProt P01106, residues 368-449)
Sequence of UniProt P01106 (368-449, looked up): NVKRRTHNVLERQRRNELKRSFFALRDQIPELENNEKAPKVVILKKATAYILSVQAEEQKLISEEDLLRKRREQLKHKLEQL
Notes: k-mer, scored over probes, only values ≥0.25
ATGCACAC: 0.373
CACGCGAC: 0.446
CGTGCTAC: 0.412
CACATGTC: 0.458
GAGCATGA: 0.3
AGCACGCA: 0.405
CATGAGTC: 0.284
ATGCGCCG: 0.279
CGTGTCGC: 0.353
ACGTGAAC: 0.27
GCCATGCA: 0.412
CAGGCATG: 0.349
GTGGCAGA: 0.318
ACGCGGGA: 0.299
CATGGAGC: 0.335
CATGCTAA: 0.332
AACGTGCC: 0.364
ACATGCGC: 0.439
GACACGAC: 0.314
AGGCCATG: 0.314
ATGTGACG: 0.344
AGCGCACG: 0.384
CATGGCCA: 0.355
ACGCCCGC: 0.256
CACGCCCG: 0.322

Series 4 — method: protein binding microarray; molecule type: double-stranded DNA, one strand shown; medium: in vitro; concentration: not given; reference: not given; direction: higher = stronger binding; measurement: E-score
Target: Histone acetyltransferase KAT6A, winged helix 1, GST fusion (KAT6A, Homo sapiens, UniProt Q92794, residues 1-85)
Notes: 8-mer, flanks averaged, mean of 2 arrays, mostly near background
Residues (chain): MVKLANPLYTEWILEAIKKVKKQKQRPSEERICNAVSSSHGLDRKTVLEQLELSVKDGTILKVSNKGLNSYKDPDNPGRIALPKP
AATAGATT: -0.138
CCCTGCGA: -0.108
AATTCAGA: -0.335
CATCTCTA: -0.0802
TAACAGAA: -0.107
AGTGTCCG: 0.14
CCCTGCTA: -0.105
AATGACGA: -0.164
ATACACAG: -0.0564
ATCTTTTG: -0.0781
AATTAGTA: -0.0819
TATGTTAA: -0.161
ACATTGCG: 0.153
ACGTGAGA: -0.194
CCTAGAGG: -0.0343
CGCGGGGC: 0.349
GCTTAAAC: 0.075
GGTGGCAA: -0.246
AGTTGAGG: -0.219
GAGCTAGC: -0.00195
ATGAAGAG: -0.15
ATTACGAA: -0.0837
GGCTATTA: 0.129
CAATTCGA: -0.2
CTTCGTCC: -0.0209

A few entries again (series 3):
CATGGAGC: 0.335
ATGCGCCG: 0.279
CACATGTC: 0.458
CGTGCTAC: 0.412
CATGGCCA: 0.355
GAGCATGA: 0.3
GTGGCAGA: 0.318
CAGGCATG: 0.349
CATGAGTC: 0.284
